Experimental data pooled from the literature.
Parts stem from different laboratories: compare values within a part only. Changes are numbered by the printed parent chain.

Series 1
Target: CCNE2, cyclin fold, Cln2 fusion (human)
Method: yeast growth competition, sequencing
Matrix: yeast
Notes: weak parent motif
Reference: not given
Direction: higher = stronger binding
Parent: PKMYT1 docking peptide (human); SFEPRNLLSLFED
| Variant | normalised enrichment score |
| --- | --- |
| F11S | 0.494 |
| F2D | 0.482 |
| E3S | 0.0628 |
| L10I | -0.0231 |
| S9K | -0.176 |
| L7F | -0.346 |
| L7M | -0.779 |
| R5A | -0.0923 |
| L10T | 0.809 |
| F11M | -0.3 |
| L8E | -3.39 |
| D13S | 0.711 |
| D13H | -0.565 |
| L8Q | -0.398 |
| L8C | -0.228 |
| L8N | 0.237 |
| E12R | 0.394 |
| N6W | -0.00365 |
| S9M | 0.26 |
| L10C | 0.171 |
| E3Q | 0.509 |
| F2Q | -0.0611 |
| P4V | -0.551 |
| F2E | -1.04 |

Series 2
Target: Sal-like protein 4, full length isoform B (SALL4, Homo sapiens, UniProt Q9UJQ4-2, residues 1-616)
Method: universal PBM
Molecule type: double-stranded DNA, one strand shown
Matrix: in vitro
Tested at: not given
Notes: 8-mer, flanks averaged, mean of replicates
Direction: higher = stronger binding
Residues (chain): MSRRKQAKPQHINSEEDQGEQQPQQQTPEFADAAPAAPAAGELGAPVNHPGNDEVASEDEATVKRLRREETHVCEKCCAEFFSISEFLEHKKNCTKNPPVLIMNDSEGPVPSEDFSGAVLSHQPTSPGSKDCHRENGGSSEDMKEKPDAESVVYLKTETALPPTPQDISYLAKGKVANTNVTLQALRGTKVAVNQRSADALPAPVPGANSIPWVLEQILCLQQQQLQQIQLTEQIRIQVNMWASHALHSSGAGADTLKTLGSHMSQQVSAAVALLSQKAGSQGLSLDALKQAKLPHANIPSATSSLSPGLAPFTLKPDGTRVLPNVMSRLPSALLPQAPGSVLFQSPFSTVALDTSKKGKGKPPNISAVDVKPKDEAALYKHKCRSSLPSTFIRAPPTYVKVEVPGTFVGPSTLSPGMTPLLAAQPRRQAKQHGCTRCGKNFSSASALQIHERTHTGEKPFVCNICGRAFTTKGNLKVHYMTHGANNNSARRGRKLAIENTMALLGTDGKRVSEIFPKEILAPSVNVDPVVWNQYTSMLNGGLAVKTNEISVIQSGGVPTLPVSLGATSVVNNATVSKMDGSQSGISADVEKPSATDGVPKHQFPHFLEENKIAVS
| Oligonucleotide | E-score |
| --- | --- |
| AAGTCATG | 0.0562 |
| ACCATTAC | 0.15 |
| ATCAGAGC | -0.16 |
| GCTGTTCC | -0.226 |
| ATTTATAA | 0.379 |
| CATCGATC | -0.0139 |
| CTGTGCCC | -0.221 |
| CGGCCAAG | -0.244 |
| CTACAACC | 0.109 |
| CCCCCTCA | -0.186 |
| CACAAAGC | -0.07 |
| CATACCCC | 0.0204 |
| CATACCTC | 0.114 |
| CAGCAATA | 0.163 |
| AGCGTACT | -0.135 |
| CCCAGGGA | -0.333 |
| AACAGTCG | -0.1 |
| CACTTGGC | -0.132 |
| CCAATCAG | -0.267 |
| ACAACCCG | -0.188 |
| ATGACAGA | 0.146 |
| CGTCGACA | -0.172 |
| TGTTAAAA | 0.265 |
| TACGGACA | 0.0769 |
| AATTCACA | 0.201 |

Series 3
Target: UBE2V2 UBC core domain (UniProt Q15819)
Method: yeast two-hybrid
Matrix: yeast
Notes: mostly zero background
Reference: not given
Direction: higher = stronger interaction
B1: MID1 RING domain (UniProt O15344); chain METLESELTCPICLELFEDPLLLPCAHSLCFNCAHRILVSHCATNESVESITAFQCPTCRHVITLSQRGL
B2: CUL9 RING domain (UniProt Q8IWT3); chain AQAVPVRPDHCPVCVSPLGCDDDLPSLCCMHYCCKSCWNEYLTTRIEQNLVLNCTCPIADCPAQPTGAFIR
B3: ZNF598 RING domain (UniProt Q86UK7); chain AAAPERGGGSCVLCCGDLEATALGRCDHPVCYRCSTKMRVLCEQRYCAVCREELRQVVFGK
B4: RNF170 RING domain (UniProt Q96K19); chain TRQQFYTDMYCPICLHQASFPVETNCGHLFCGACIIAYWRYGSWLGAISCPICRQTVTLLLTVF
B5: PHF21A RING domain (UniProt Q96BD5); chain SPTSTDGDIHEDFCSVCRKSGQLLMCDTCSRVYHLDCLDPPLKTIPKGMWICPRCQDQMLKKEEAIPW
B6: TRIM63 RING domain (UniProt Q969Q1); chain PMENLEKQLICPICLEMFTKPVVILPCQHNLCRKCANDIFQAANPYWTSRGSSVSMSGGRFRCPTCRHEVIMDRHGV
B7: TRIM69 RING domain (UniProt Q86WT6); chain VIQDITMELHCPLCNDWFRDPLMLSCGHNFCEACIQDFWRLQAKETFCPECKMLCQYNNCTF
Target sequence (chain): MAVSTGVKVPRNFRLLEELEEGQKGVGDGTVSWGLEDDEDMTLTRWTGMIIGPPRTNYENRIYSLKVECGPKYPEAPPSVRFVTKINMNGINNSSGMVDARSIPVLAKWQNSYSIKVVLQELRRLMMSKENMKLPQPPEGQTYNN
| Sequence | lacZ reporter activity |
| --- | --- |
| EDEVSDNSAECVVCLSDVRDTLILPCRHLCLCNTCADTLRYQANNCPICRLPFRALLQIR (RNF157 RING domain (UniProt Q96PX1)) | 0 |
| B1 (MID1 RING domain) | 0 |
| B2 (CUL9 RING domain) | 0 |
| QLRRLQEERTCKVCMDKEVSVVFIPCGHLVVCQECAPSLRKCPICRGIIKGTVRTF (BIRC2 RING domain (UniProt Q13490)) | 0 |
| QLRRLQEERTCKVCMDKEVSIVFIPCGHLVVCKDCAPSLRKCPICRSTIKGTVRTF (BIRC3 RING domain (UniProt Q13489)) | 0 |
| B3 (ZNF598 RING domain) | 0 |
| RLTMMWEEVTCPICLDPFVEPVSIECGHSFCQECISQVGKGGGSVCPVCRQRFLLKNLRP (TRIM21 RING domain (UniProt P19474)) | 0 |
| FPEHFVKSISCQICEHILADPVETNCKHVFCRVCILRCLKVMGSYCPSCRYPCFPTDLES (RAG1 RING domain (UniProt P15918)) | 0 |
| DDENSDNSNECVVCLSDLRDTLILPCRHLCLCTSCADTLRYQANNCPICRLPFRALLQIR (MGRN1 RING domain (UniProt O60291)) | 0 |
| B4 (RNF170 RING domain) | 0 |
| B5 (PHF21A RING domain) | 0 |
| QLQDIKEQTMCPVCLDRLKNMIFLCGHGTCQLCGDRMSECPICRKAIERRILLY (MIB1 RING domain (UniProt Q86YT6)) | 0 |
| B6 (TRIM63 RING domain) | 0 |
| B7 (TRIM69 RING domain) | 0 |

Series 4
Target: RING finger protein unkempt homolog, zinc fingers 1-6, SBP tag (UNK, Homo sapiens, UniProt Q9C0B0, residues 30-357)
Sequence of UniProt Q9C0B0 (30-357, looked up): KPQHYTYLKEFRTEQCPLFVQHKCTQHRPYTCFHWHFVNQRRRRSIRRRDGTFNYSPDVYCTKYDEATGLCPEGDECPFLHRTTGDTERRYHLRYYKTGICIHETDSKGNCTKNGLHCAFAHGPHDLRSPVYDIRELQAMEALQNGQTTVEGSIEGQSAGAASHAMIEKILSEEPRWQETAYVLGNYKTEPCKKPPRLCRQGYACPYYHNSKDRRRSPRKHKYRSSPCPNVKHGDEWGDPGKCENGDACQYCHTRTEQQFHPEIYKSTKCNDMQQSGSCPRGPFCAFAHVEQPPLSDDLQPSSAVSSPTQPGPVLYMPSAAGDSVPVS
Method: RNA Bind-n-Seq
Molecule type: RNA
Matrix: in vitro
Tested at: 100 nM
Notes: RNA with constant flanks, vertebrate orthologous sites, ends assumed
Reference: input RNA pool
Direction: higher = stronger binding
Shared flanks, not repeated: GGGAGUUCUACAGUCCGACGAUC … CAACAGAGGAUUGAGCAUCA
| Oligonucleotide | bound/input enrichment [ratio] |
| --- | --- |
| AAUCAAUAGAAUUAUAUAAUAGUAAAGUUGCUAUUGAAAGGAUAUCCAAGUAUGUGUUUGUAGUUACUAAAAAAAAACCAAUUAUAGCUGUUAUUGCCUUGUAUUUAUAGCCCUCGUUUC | 1.7 |
| CUGUUGCAUGAAAUAUGUCUACCCAGAGAAGUAUCACACUAUAAAUAUUAUCAAAUAAUUUAGCUACAGUCUUCUUAGAUAUUAAAUUGUAUGUCAAGCAUUUAAAAGUCAAUUUGAGAU | 0.615 |
| CUCUAUGGGCCUCGCAGAAUUGAAAUAAUGGAAGAGGAAAGUGAACAGUAAUCUUCAUUUUAGUAUUUAUGCUUAGGUGUGAAAUAAAUGUUGUUUGUUGAUCAUUUCUAUAACCCAGAG | 0.423 |
| AAGGAGCAGCACAGGCUAUUGAGCUUUGGGGAAAUGAGCUUUUUGCUUUUUGUAUUUAAAUAGGAUCCUUUUAUACGACGGGUGCUUUUGGUGGGAAUGCACCAGGCUCUGCGCUUCAGA | 0.846 |
| UUCAGGCACAACUGACUGGUUCACAGCAUUCCUUACAUAGCUAUCUGUCAAAUGCAAGUGUGGUUAAUUUUCAGGAAACAAGUAGGCAGUCAUCUUUAUCCUGUAGCCCAGUUGGAGAUU | 0.993 |
| CAAGACUGGUUUGGUAUCUAUAUGUGUACCACUUAAUCCAUUGUUUAAAAAAUCUGUUGGCCUAGGAUUAAAGUUGAAUCAUUCAACACUUUAUAUUGCUUGUAAUCAAUAUUUUGAAAG | 0.31 |
| AAGUUCCCCCAUUGUCACUGAGAACCACCAAAUCUGACUUUUACAUUUGGUCUCAGAAUUUAGGUUCCUGCCCUGUUGGUUUUUUUUUUUUUUUUUUAAACAGUUUUCAAAAGUUCUUAA | 1.4 |
| CACAAUCUCUACUUAAGUAGGUUUUUACAUACCAAGUUAAGCCUUCAUUUUACAUAUUUACAGCUUUUCUCCAGAGGAGGUAAAAGAAUCUCAUACUUAAAGUUACAUGUGGUCUUUGCC | 0.414 |
| UGUGUCUCUUGGUUUGGGGUAGAGGGGAGGGAGGGGUAGGACUGGAAUCUCUAGGGUGUAUGGGUAGAUAGGGUGCACAGUUAGUUCUGUGUGGGGGCCUUUAUGUAAAAAAAACUCUGA | 0.552 |
| AGCUUCUGGUGACAUUUGGCCCGGCCUUUCAGCAUAUGAUAACAGUCCAAGGUCACCCCAUAGUCCUUCUAUUGCUUCCCCACCUAGUCAGAGUUCGUCUUGCUCUGAUGCGCCCUUACU | 0.839 |
| GGUCCCCUGGGCUGGGACAGACAUUUUUUUAAGCGUCUUGAAACCUAAACUCUGUGCUUGUAGAAGACUGUAACCUUUUUGUUUGUUUUUUGUUUUUAAAACAACCUGCACCUCCAGUGG | 0.407 |

Series 5
Target: ABI1, truncated, D143A, DHFR fusion (Arabidopsis thaliana)
Method: DHFR PCA, deep sequencing
Matrix: yeast
Notes: methotrexate growth selection, single substitutions
With: (+)-ABA 200 µM
Reference: wild-type fitted maximum
Direction: higher = stronger binding
Parent: PYL1, truncated, DHFR fusion (Arabidopsis thaliana); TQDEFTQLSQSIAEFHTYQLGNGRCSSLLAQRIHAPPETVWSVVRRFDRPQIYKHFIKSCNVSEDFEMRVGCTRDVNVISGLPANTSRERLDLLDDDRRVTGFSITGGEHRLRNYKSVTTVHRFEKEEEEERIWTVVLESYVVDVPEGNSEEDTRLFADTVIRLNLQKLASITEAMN; partner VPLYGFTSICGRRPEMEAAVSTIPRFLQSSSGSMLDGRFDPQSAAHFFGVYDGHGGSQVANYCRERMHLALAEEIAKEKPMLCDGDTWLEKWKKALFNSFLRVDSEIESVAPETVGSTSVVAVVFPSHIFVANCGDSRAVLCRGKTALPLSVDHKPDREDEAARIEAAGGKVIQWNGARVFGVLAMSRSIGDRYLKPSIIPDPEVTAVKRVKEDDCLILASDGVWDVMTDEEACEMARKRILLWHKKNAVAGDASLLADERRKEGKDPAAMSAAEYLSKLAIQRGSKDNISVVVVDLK
| Variant | relative binding score |
| --- | --- |
| E151P | 96.1% |
| D75I | 105% |
| V62T | 94% |
| M68K | 76.3% |
| E125H | 102% |
| G108L | 23.5% |
| G23T | 89.2% |
| R90M | 91.7% |
| V118S | 60.7% |
| D92E | 92.2% |
| S59M | 79.5% |
| N77S | 104% |
| S171F | 89.1% |
| S117R | 7.1% |
| N165D | 36% |
| R132I | 107% |
| R24E | 98.8% |
| Q10K | 96.8% |
| D97L | 96.9% |
| E131S | 104% |
| I79M | 92.6% |
| L94Y | 100% |

For quick reference, copied from above (series 2):
| Oligonucleotide | E-score |
| --- | --- |
| CAGCAATA | 0.163 |
| AGCGTACT | -0.135 |
| CCCAGGGA | -0.333 |
| AACAGTCG | -0.1 |
| CACTTGGC | -0.132 |
| CCAATCAG | -0.267 |
| ACAACCCG | -0.188 |
| ATGACAGA | 0.146 |
| CGTCGACA | -0.172 |
| TGTTAAAA | 0.265 |
| TACGGACA | 0.0769 |
